Measured values collected from several papers.
Each line is one published result; not all experiments were run side by side. Values joined by “and” are separate records of one study, mostly repeats; a detail may differ. In brackets after ≈: the same amount, converted by molar mass.

| Structure (SMILES) | organism | assay | system | setting | how to read | endpoint | result |
| --- | --- | --- | --- | --- | --- | --- | --- |
| COC(=O)C1=C(C)NC(C)=C(C(=O)OC(C)(C)CN(C)CCC(c2ccccc2)c2ccccc2)C1c1cccc([N+](=O)[O-])c1 (stereo not shown) | Aspergillus fumigatus | Alamar blue |  | 125 µg/mL, 48 h, together with: caspofungin 0.2 µg/mL |  | metabolic activity | 20.2% and 23.1% |
| CC1(C)CC(=O)c2c(C(F)(F)F)nn(-c3ccc(C(N)=O)c(N[C@H]4CC[C@H](O)CC4)c3)c2C1 | human alphaherpesvirus 1 |  | primary human fibroblasts, K26 GFP |  | reference: CC50 over IC50 | selectivity index | > 1200 |
| N=C(N)NCCC[C@H](NC(=O)CN)C(=O)N[C@@H](Cc1c[nH]c2ccccc12)C(=O)N[C@@H](CCCNC(=N)N)C(=O)N[C@@H](Cc1c[nH]c2ccccc12)C(=O)N[C@@H](Cc1c[nH]c2ccccc12)C(=O)N[C@@H](Cc1c[nH]c2ccccc12)C(=O)N[C@@H](CCCNC(=N)N)C(=O)N[C@@H](Cc1c[nH]c2ccccc12)C(=O)N[C@@H](CCCNC(=N)N)C(=O)N[C@@H](Cc1ccccc1)C(N)=O | Candida parapsilosis | broth microdilution | CGMCC 2.399, RPMI 1640-MOPS | 48 h, 30 °C |  | MIC | 8 µM (≈ 14.2 µg/mL) |
| Cn1c(=O)ccc2ccc(F)c(CCNC[C@H]3CN(c4cnc5c(n4)NC(=O)CO5)C(=O)O3)c21 | Morganella morganii |  |  |  |  | MIC90 | 0.5 µg/mL (≈ 1.07 µM) |
| CN(C)C/C=C/C(=O)Nc1cc2c(Nc3ccc(F)c(Cl)c3)ncnc2cc1O[C@H]1CCOC1 | murine hepatitis virus | viral replication, nanoluciferase reporter | DBT | 1 µM, 10 h | reference: DMSO vehicle | inhibition | 51% |
| CCCC(CCC)C(=O)Nc1ccccc1O | Artemia franciscana | LC-MS/MS metabolomics, item: 1-aminocyclopropanecarboxylic acid | larvae | concentration not given, 24 h, LC1 concentration | reference: vehicle | log2 fold change | 0.473 |
| CC(C)C[C@H](NC(=O)[C@H](CCCNC(=N)N)NC(=O)[C@H](Cc1c[nH]c2ccccc12)NC(=O)[C@H](CCCNC(=N)N)NC(=O)[C@H](Cc1c[nH]c2ccccc12)NC(=O)[C@H](Cc1c[nH]c2ccccc12)NC(=O)[C@H](Cc1c[nH]c2ccccc12)NC(=O)[C@H](CCCNC(=N)N)NC(=O)[C@H](Cc1c[nH]c2ccccc12)NC(=O)[C@@H](N)CCCNC(=N)N)C(N)=O | Candida albicans | broth microdilution | CGMCC 2.209, RPMI 1640-MOPS | 48 h, 30 °C, together with: MgCl2 1 mM |  | MIC | 16 µM (≈ 27 µg/mL) |
| NS(=O)(=O)c1ccc(N/N=C2\C(=O)Nc3ccc(C(=O)NCCc4c[nH]cn4)cc32)cc1 | Aspergillus fumigatus |  |  | 20 µM | reference: untreated | metabolic activity | ≥ 80% |
| CO/N=C(\C(=O)N[C@@H]1C(=O)N2C(C(=O)O)=C(CSC(=O)c3ccco3)CS[C@H]12)c1csc(N)n1 | Staphylococcus aureus |  | CAAS-2019-CAAS-2019-14 clinical blaZ-resistant isolate, PBS |  |  | MBC | 16 µg/mL |
| Cc1c[nH]c2nccc(Oc3c(F)cc(Nc4cc(Cl)nc(N)n4)cc3F)c12 | murine hepatitis virus | viral replication, nanoluciferase reporter | DBT | 1 µM, 10 h | reference: DMSO vehicle | inhibition | 51% |
| N#Cc1ccc2c(ccc3oc([N+](=O)[O-])cc32)c1 | Mycobacterium avium subsp. hominissuis | REMA | ATCC 25291 |  |  | MIC90 | > 32 µg/mL |
| CCCCN(Cc1ccccc1)C(=O)c1ccc(S(=O)(=O)Nc2ccccc2)cc1 | murine hepatitis virus | viral replication, nanoluciferase reporter | DBT | 1 µM, 10 h | reference: DMSO vehicle | inhibition | 10% |
| CC[C@H](C)[C@H](NC(=O)[C@H](C)NC(=O)[C@H](CCCCN)NC(=O)[C@H](CC(C)C)NC(=O)[C@H](C)NC(=O)[C@@H](NC(=O)[C@H](Cc1c[nH]cn1)NC(=O)[C@H](CC(C)C)NC(=O)[C@@H](NC(=O)[C@@H](NC(=O)[C@H](CCCCN)NC(=O)[C@H](C)NC(=O)[C@H](C)NC(=O)[C@H](CO)NC(=O)[C@H](CCCCN)NC(=O)[C@H](Cc1ccccc1)NC(=O)[C@@H](NC(=O)[C@H](CCCCN)NC(=O)[C@H](CC(C)C)NC(=O)[C@H](Cc1ccccc1)NC(=O)[C@H](CO)NC(=O)[C@H](CCCCN)NC(=O)[C@H](Cc1c[nH]c2ccccc12)NC(=O)[C@H](CCCCN)NC(C)=O)[C@@H](C)O)[C@@H](C)O)C(C)C)[C@@H](C)O)C(=O)N[C@@H](CO)C(=O)N[C@@H](CO)C(N)=O | Klebsiella pneumoniae |  |  | 40 strains |  | MIC90 | 8 µg/mL (≈ 2.73 µM) |
| CCCCCCCCCCCCCCNC(=O)CP(=O)(O)O | Bacillus cereus |  | 1056 strains |  |  | MIC90 | 3.13 µg/mL (≈ 9.33 µM) |
| CC[C@H](C=C[C@@H](C)[C@H]1CC[C@H]2[C@@H]3CCC4=CC(=O)CC[C@]4(C)[C@H]3CC[C@]12C)C(C)C | Leishmania mexicana | propidium iodide flow cytometry | promastigotes | concentration not given, 48 h |  | antileishmanial activity | inactive |
| Nc1ncnc2c1ncn2[C@@H]1O[C@@H]2COP(=O)(O)O[C@H]3[C@@H](O)[C@H](n4cnc5c(=O)[nH]cnc54)O[C@@H]3COP(=O)(O)O[C@H]2[C@H]1O | Zika virus | upregulated Reactome pathway, RNA sequencing, item: Interferon alpha/beta signaling (R-HSA-909733) | HFF-1 |  | reference: ZIKV-infected untreated | fold enrichment | 18.6 |
| COc1ccc2c(ccc3oc([N+](=O)[O-])c(C)c32)c1 | Mycobacterium avium subsp. hominissuis | REMA | ATCC 25291 |  |  | MIC90 | > 32 µg/mL |
| CCN(CCCOc1ccc2c(Nc3cc(CC(=O)Nc4cccc(F)c4)n[nH]3)ncnc2c1)CCOP(=O)(O)O | murine hepatitis virus | viral replication, nanoluciferase reporter | DBT | 1 µM, 10 h | reference: DMSO vehicle | inhibition | -8% |
| CS(=O)(=O)CCCn1c(Cn2c(=O)n(CC(F)(F)F)c3ccncc32)cc2cc(Cl)ccc21 | respiratory syncytial virus | RT-qPCR | hospitalized infants 1-24 months, nasal swab | oral, 1-9 mg/kg daily, day 2, all doses combined | reference: placebo | LS mean difference vs placebo | -1.33 log10 copies/mL |
| CN([C@@H](Cc1ccc(OS(=O)(=O)c2cccc3cnccc23)cc1)C(=O)N1CCN(c2ccccc2)CC1)S(=O)(=O)c1cccc2cnccc12 | murine hepatitis virus | viral replication, nanoluciferase reporter | DBT | 1 µM | reference: DMSO vehicle | inhibition | 28% |
| C=C(CN(C(=O)c1c(C(F)F)nn(C)c1F)C1CC1)c1ccc(Cl)cc1Cl | Phytophthora capsici |  |  | 1.56 mg/L |  | mean colony diameter | 16.8 mm |
| Cc1cn(-c2cc(NC(=O)c3ccc4c(c3)CN(c3cncnc3)C[C@@H]4C)cc(C(F)(F)F)c2)cn1 | murine hepatitis virus | viral replication, nanoluciferase reporter | DBT | 1 µM, 10 h | reference: DMSO vehicle | inhibition | 16% |
| C[C@H](NC(=O)[C@H](CCCNC(=N)N)NC(=O)[C@H](Cc1c[nH]c2ccccc12)NC(=O)[C@H](CCCNC(=N)N)NC(=O)[C@H](Cc1c[nH]c2ccccc12)NC(=O)[C@H](Cc1c[nH]c2ccccc12)NC(=O)[C@H](Cc1c[nH]c2ccccc12)NC(=O)[C@H](CCCNC(=N)N)NC(=O)[C@H](Cc1c[nH]c2ccccc12)NC(=O)[C@@H](N)CCCNC(=N)N)C(N)=O | Candida albicans | broth microdilution | 17546, RPMI 1640-MOPS | 48 h, 30 °C |  | MIC | 8 µM (≈ 13.2 µg/mL) |
| CN(C)C(=O)/C(C#N)=C/c1ccc(-c2nc3cnc4c(ccn4C)c3n2C2CCCCC2)o1 | murine hepatitis virus | viral replication, nanoluciferase reporter | DBT | 1 µM | reference: DMSO vehicle | inhibition | 30% |
| C[C@H](N)C(=O)NCC(=O)N[C@H]1CSSC[C@@H](C(=O)O)NC(=O)[C@H](CO)NC(=O)[C@H]([C@@H](C)O)NC(=O)[C@H](Cc2ccccc2)NC(=O)[C@H]([C@@H](C)O)NC(=O)[C@H](CCCCN)NC(=O)[C@H](Cc2c[nH]c3ccccc23)NC(=O)[C@H](Cc2ccccc2)NC(=O)[C@H](Cc2ccccc2)NC(=O)[C@H](CC(N)=O)NC(=O)[C@H](CCCCN)NC1=O | Aspergillus fumigatus | Alamar blue |  | 20 µM |  | metabolic activity | 100% |

Repeated from above:
| Structure (SMILES) | organism | assay | system | setting | how to read | endpoint | result |
| --- | --- | --- | --- | --- | --- | --- | --- |
| CC[C@H](C)[C@H](NC(=O)[C@H](C)NC(=O)[C@H](CCCCN)NC(=O)[C@H](CC(C)C)NC(=O)[C@H](C)NC(=O)[C@@H](NC(=O)[C@H](Cc1c[nH]cn1)NC(=O)[C@H](CC(C)C)NC(=O)[C@@H](NC(=O)[C@@H](NC(=O)[C@H](CCCCN)NC(=O)[C@H](C)NC(=O)[C@H](C)NC(=O)[C@H](CO)NC(=O)[C@H](CCCCN)NC(=O)[C@H](Cc1ccccc1)NC(=O)[C@@H](NC(=O)[C@H](CCCCN)NC(=O)[C@H](CC(C)C)NC(=O)[C@H](Cc1ccccc1)NC(=O)[C@H](CO)NC(=O)[C@H](CCCCN)NC(=O)[C@H](Cc1c[nH]c2ccccc12)NC(=O)[C@H](CCCCN)NC(C)=O)[C@@H](C)O)[C@@H](C)O)C(C)C)[C@@H](C)O)C(=O)N[C@@H](CO)C(=O)N[C@@H](CO)C(N)=O | Klebsiella pneumoniae |  |  | 40 strains |  | MIC90 | 8 µg/mL (≈ 2.73 µM) |
| CCCCCCCCCCCCCCNC(=O)CP(=O)(O)O | Bacillus cereus |  | 1056 strains |  |  | MIC90 | 3.13 µg/mL (≈ 9.33 µM) |
| CC[C@H](C=C[C@@H](C)[C@H]1CC[C@H]2[C@@H]3CCC4=CC(=O)CC[C@]4(C)[C@H]3CC[C@]12C)C(C)C | Leishmania mexicana | propidium iodide flow cytometry | promastigotes | concentration not given, 48 h |  | antileishmanial activity | inactive |
